{"data": "Measurements gathered from unrelated publications", "cell line": "DU-145", "note": "Compare with care: the assays were run in different laboratories."}
{"Structure (SMILES)": "C1=[N+]2CCCC[N+]3=Cc4ccc5[n]4[Au-]23[n]2c1ccc2-c1nc2ccccc2nc1-5.F[P-](F)(F)(F)(F)F", "assay": "NCI60 five-dose screen", "endpoint": "TGI", "result": "4 -log M"}
{"Structure (SMILES)": "COc1ccc(C(O)=CC(=O)c2ccc(C(C)(C)C)cc2)cc1.[Ru+2].c1ccc(-c2ccnc3c2ccc2c(-c4ccccc4)ccnc23)cc1.c1ccc(-c2ccnc3c2ccc2c(-c4ccccc4)ccnc23)cc1", "assay": "cytotoxicity", "conditions": "dark", "endpoint": "IC50", "result": "9.9 µM"}
{"Structure (SMILES)": "CN(C)CCN1CCN(c2ccc3nc(-c4ccc5nc(-c6ccc(C(F)(F)F)cc6)[nH]c5c4)[nH]c3c2)CC1", "assay": "SRB", "conditions": "10 µM, 48 h", "endpoint": "growth percent", "result": "45%"}
{"Structure (SMILES)": "CCCC(CCC)C(=O)OCc1cn(-c2cc3ccccc3oc2=O)nn1", "assay": "NCI60 single-dose screen", "conditions": "10 µM", "endpoint": "growth percentage", "result": "106%"}
{"Structure (SMILES)": "O=C(Nc1nnc2c1c(-c1ccc(Cl)cc1)nc1sc(=Cc3ccco3)c(=O)n12)c1ccccc1 (mixture of isomers)", "assay": "SRB", "conditions": "10 µM, NCI60 single-dose screen, prostate cancer", "how to read": "reference: untreated", "endpoint": "cell growth", "result": "57.2%"}
{"Structure (SMILES)": "Cc1ccc([N+](=O)[O-])cc1S(=O)(=O)N(C)/N=C/c1cnc2ccc(Br)cn12", "assay": "cell growth or viability", "endpoint": "IC50", "result": "0.001 µM"}
{"Structure (SMILES)": "CCN(C(=O)c1cc(F)ccc1Oc1nncnc1N1CCC2(C1)CN([C@H](CCCN(C)CCOC)C(C)C)C2)C(C)C", "assay": "cell growth or viability", "conditions": "72 h", "endpoint": "GI50", "result": "> 10 µM"}
{"Structure (SMILES)": "COc1ccc(C(O)=CC(=O)c2ccc(C(C)(C)C)cc2)cc1.[Ru+2].c1ccc(-c2cccc(-c3ccccn3)n2)nc1.c1cnccn1", "assay": "cytotoxicity", "conditions": "dark", "endpoint": "IC50", "result": "0.18 µM"}
{"Structure (SMILES)": "CC(C)c1ccc(N(C)c2ccc3c(c2)OCC[C@H]3CNc2cnccc2C(=O)O)cc1", "assay": "cell viability, CellTiter-Glo", "conditions": "7 days", "endpoint": "IC50", "result": "0.0177 µM"}
{"Structure (SMILES)": "CNS(=O)(=O)Nc1nccc(Cc2c(C)c3ccc(Oc4ncccc4F)cc3oc2=O)c1F", "assay": "cell viability", "conditions": "7 days", "endpoint": "IC50", "result": "> 1 µM"}
{"note": "For quick reference, copied from above:"}
{"Structure (SMILES)": "COc1ccc(C(O)=CC(=O)c2ccc(C(C)(C)C)cc2)cc1.[Ru+2].c1ccc(-c2ccnc3c2ccc2c(-c4ccccc4)ccnc23)cc1.c1ccc(-c2ccnc3c2ccc2c(-c4ccccc4)ccnc23)cc1", "assay": "cytotoxicity", "conditions": "dark", "endpoint": "IC50", "result": "9.9 µM"}
